Assay results collected from several papers.
Each line is one published result; not all experiments were run side by side. “And” joins repeats or separate records; there may be more than shown. ± gives the spread as reported. Square brackets hold non-standard residues; d marks the D form. Where no end group is shown, it is not given here. Ends that are not written are not given here. [ ]: non-standard residue; d: D form.
UniProt O15392, sequence (whole entry, looked up): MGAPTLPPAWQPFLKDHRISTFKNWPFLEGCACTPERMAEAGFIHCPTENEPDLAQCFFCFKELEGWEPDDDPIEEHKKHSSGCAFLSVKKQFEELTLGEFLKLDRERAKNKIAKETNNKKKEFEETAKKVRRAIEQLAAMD

COc1c(O)cc2oc3cc(O)c(CC=C(C)C)c(O)c3c(=O)c2c1CC=C(C)C  xanthone amount (Caco-2; RP-HPLC; concentration not given, 24 h, Transwell inserts): 9370 ± 510 pmol/dish
O=C(c1cc(Cc2n[nH]c(=O)c3ccccc23)ccc1F)N1CCN(C(=O)C2CC2)CC1  concentration increasing cytotoxicity (MDA-MB-231; 24 h; relative to: vehicle): 320 µM
C[C@@H]1CCO[C@H]2Cn3cc(C(=O)NCc4ccc(F)cc4F)c(=O)c(O)c3C(=O)N12  intracellular accumulation (hCMEC/D3; 5 µM, 1 h, 37 °C, 3-drug cART combination): 81.1 ± 18.5 pmol/mg protein
Nc1nc2c(ncn2COCCO)c(=O)[nH]1  minimum cytotoxic concentration (HEL embryonic lung fibroblasts; cell morphology, microscopy): > 440 µM
AR[pT]KQTARKSTG (H3C1 1-12; pT3; pT = C[C@@H](OP(=O)(O)O)[C@H](N)C(=O)O)  Kd (birc5.1 R89H (Xenopus laevis, UniProt Q8JGN5); ITC; peptide; pH 6.8, 25 °C): 1.01 ± 0.09 µM
CC1(C)[C@H](C(=O)O[C@H](C#N)c2cccc(Oc3ccccc3)c2)[C@@H]1/C=C(\Cl)C(F)(F)F (racemic)  apoptotic cells ratio (Caco-2; Hoechst and PI staining; 25 µM, 48 h; relative to: untreated): 3
RmS-3, glycosylated (Rhipicephalus microplus)  protease inhibition (trypsin (Bos taurus); chromogenic substrate hydrolysis, inhibitor; 1 µM): < 20%
CC(C)N(N=O)C(C)C  ATP level (HepaRG 3D spheroids; cell viability; concentration not given, 24 h; relative to: vehicle): 84.7%
NC1=NC2(CCNCC2)N(c2cccc(Cl)c2)C(N)=N1  minimum cytotoxic concentration (MDCK; microscopy, altered cell morphology): > 100 µM
CNSRQTDREDELI  inhibition (peptide, human polyclonal IgM RF ABR; concentration not given, 5 µg/mL mAb II-481 coated, with: RF at 50% max binding concentration): 0%
CCCCNC(=O)OCC#CI  point of departure (human iPSC-derived cardiomyocytes; mitochondrial membrane potential, refers to: JC-10 granules; 30 min): < 30 µM
CO[C@]1(COP(=O)(N[C@@H](C)C(=O)OCc2ccccc2)Oc2ccccc2)O[C@@H](n2ccc(N)nc2=O)C(F)(F)[C@@H]1O (stereo partly shown)  minimum cytotoxic concentration (HEL embryonic lung fibroblasts; cell morphology, microscopy): > 100 µM
CC(C)(c1ccc(O)cc1)c1ccc(O)cc1  point of departure (human iPSC-derived cardiomyocytes; mitochondrial membrane potential, refers to: JC-10 granules; 30 min): < 30 µM
Cc1cc2c(cc1N1C(=O)c3cccc4c(CCCO)ccc(c34)C1=O)n(C)c(=O)n2C  nonspecific binding (MDA-MB-231; trypsin-EDTA digestion vs solvent extraction; concentration not given, 6 h): 50%
CCN(CC)N=O  lowest effective concentration (HepaRG 3D spheroids; DNA damage, refers to: % tail DNA; 24 h; relative to: vehicle): 312 µM
TATCAACACTCTTTTCTTTTATGATATTTAATAGTTATTGCAAATTCATTGCTAACTTTCTTAACACGTTTTATAATAAACGGAGAGTTATCCGTTTGTCAATTTTAGAGAATTTTAAGTAGGTGTAATCATGCGAAAAGATGCAAAAGA (dsDNA)  Kd (gbaA 1-185 C104S (Staphylococcus aureus COL, UniProt Q5HCX3); EMSA; double-stranded DNA, one strand shown): 0.0158 µM
O=C(NC(=O)c1c(F)cccc1F)Nc1cc(Cl)c(F)c(Cl)c1F  apoptotic cells ratio (Caco-2; Hoechst and PI staining; 25 µM, 48 h; relative to: untreated): 3.9
Clc1ccc(Cl)c(-c2c(Cl)ccc(Cl)c2Cl)c1Cl  EC50 (differentiated HepaRG; CAR activation, agonist, refers to: CYP2B6 mRNA; 24 h; relative to: phenobarbital 2 mM): 6.6 µM
CON=C(N)c1ccc(-c2ccc(-c3ccc(C(N)=NOC)cc3)o2)cc1  IC50 (HepaRG; cell growth or viability, resazurin): 82.5 µM
C=C(C[C@H](N)C(=O)O)C(=O)NCc1ccc([N+](=O)[O-])cc1  concentration increasing cytotoxicity (MDA-MB-231; 72 h; relative to: vehicle): 320 µM
C[C@H](Cn1cnc2c(N)ncnc21)OCP(=O)(O)O  intracellular concentration (hCMEC/D3; 10 µM, 1 h, in antiretroviral combination): 0.64 ± 0.15 ng/mL
NSRQTDR  inhibition (peptide, human polyclonal IgM RF ABR; concentration not given, 5 µg/mL mAb II-481 coated, with: RF at 50% max binding concentration): 0%
CSCCC(NS(=O)(=O)NCc1cccc(Oc2ccccc2)c1)C(=O)NCCN1CCOCC1.Cl (racemic)  TD50 (HG23 norovirus replicon cells; 48 h): 230 ± 34 µM
COc1cccc2c1C(=O)c1c(O)c3c(c(O)c1C2=O)C[C@@](O)(C(=O)CO)C[C@@H]3O[C@H]1C[C@H](N)[C@H](O)[C@H](C)O1  intracellular drug remaining (HCT-8/ADR; concentration not given, 4 h after loading, 2 h loading then drug-free medium): 45%
O=C(Cc1ccccc1Nc1c(Cl)cccc1Cl)Oc1ccc(-c2cc(=S)ss2)cc1  IC50 (HepG2 and LS180; EROD activity, inhibitor; 24 h, averaged over cell lines, with: DMBA 1 µM): 16 µM
AR[pT]KQTARKSTGGKA (histone H3 2-16 (UniProt P68431); pT3; pT = C[C@@H](OP(=O)(O)O)[C@H](N)C(=O)O; sequence looked up)  Kd (BIRC5 (Homo sapiens, UniProt O15392); ITC; peptide; pH 7.5, 25 °C, NaCl 100 mM): 4.8 ± 1.13 µM
Cl.O=C(CN(Cc1ccccc1)S(=O)(=O)NCc1cccc(Oc2ccccc2)c1)NCCN1CCOCC1  TD50 (HG23 norovirus replicon cells; 48 h): 55 ± 12 µM
CCN(N=O)C(C)C  relative survival (HepaRG, 2D; concentration not given, 24 h, highest tested concentration, hEGF 3 days; relative to: vehicle): 79.3%
melittin  partitioning enthalpy (isothermal titration calorimetry; POPC/POPG LUVs 90:10%; 100 µM, pH 7.0, 50 °C): -10 kcal/mol
Tricresyl phosphate  point of departure (human iPSC-derived cardiomyocytes; mitochondrial membrane potential, JC-10; 30 min): < 30 µM
CCc1ccc(NC(=O)c2cc3c(=O)n4ccccc4nc3n2C)cc1  IC50 (Vero E6; MTT): 21.6 ± 1.64 µM
COc1cccc(N2C(N)=NC(N)=NC23CCNCC3)c1  minimum cytotoxic concentration (MDCK; microscopy, altered cell morphology): > 100 µM
Cc1cn(Cc2ccc(O)c(C=O)c2)c(=O)[nH]c1=O  minimum cytotoxic concentration (HEL fibroblasts; cell morphology alteration): > 100 µM
CC(C)[C@H](N)C(=O)N1CCC[C@H]1C(=O)N[C@@H](Cc1ccccc1)C(=O)N[C@@H](Cc1c[nH]c2ccccc12)C(=O)N[C@@H](C)C(=O)O  viability (Caco-2; MTT; 0.5 and 1 mM, 4 h): > 100%
C=C(C[C@H](N)C(=O)O)C(=O)NC1CC1  concentration increasing cytotoxicity (MDA-MB-231; 24 h; relative to: vehicle): 320 µM
CCCCN(CCCC)N=O  lowest effective concentration (HepaRG spheroids; micronucleus formation, flow cytometry; 24 h; relative to: vehicle control): 500 µM
Cc1nn(Cc2ccc(O)c(C=O)c2)c(=O)[nH]c1=O  minimum cytotoxic concentration (HEL fibroblasts; cell morphology, microscopy): ≥ 100 µM
O=NN1CCN(C2CCCC2)CC1  relative survival (HepaRG, 2D culture; flow cytometry micronucleus; highest tested concentration, 24 h, plus 3 days hEGF; relative to: vehicle): 61.3%
CC[C@H](C)[C@H](NC(=O)[C@H](CCCCN)NC(=O)[C@@H](NC(=O)[C@H](CC(N)=O)NC(=O)[C@H](C)NC(=O)[C@H](CCCNC(=N)N)NC(=O)[C@H](CCCNC(=N)N)NC(=O)[C@H](CC(N)=O)NC(=O)[C@H](CCCNC(=N)N)NC(=O)[C@@H](NC(=O)[C@H](CCCNC(=N)N)NC(=O)[C@@H](NC(=O)[C@H](CO)NC(=O)[C@@H](NC(=O)[C@H](CS)NC(=O)[C@H](CCCCN)NC(=O)[C@@H](N)CCCNC(=N)N)[C@@H](C)CC)C(C)C)[C@@H](C)CC)[C@@H](C)CC)C(=O)N[C@@H](CS)C(=O)N[C@@H](CC(N)=O)C(=O)O  hemolysis (human red blood cells; 128 µg/mL, 3 h, 37 °C; relative to: Triton X-100): 0.08%
Cl.NC1=NC2(CCCN(Cc3ccccc3)C2)N(c2ccccc2)C(N)=N1 (stereo not shown)  minimum cytotoxic concentration (MDCK; microscopy, altered cell morphology): > 100 µM
RmS-6, glycosylated (Rhipicephalus microplus)  protease inhibition (chymotrypsin (Bos taurus); chromogenic substrate hydrolysis, inhibitor; 1 µM): 24.3%
O=Cc1cc(Cn2ccc(=O)[nH]c2=O)ccc1O  minimum cytotoxic concentration (HEL fibroblasts; cell morphology alteration): > 100 µM
CN(CCCC(=O)O)N=O  lowest effective concentration (HepaRG spheroids; micronucleus formation, flow cytometry; 24 h; relative to: vehicle control): 7500 µM
Cl[C@H]1[C@H](Cl)[C@@H](Cl)[C@@H](Cl)[C@H](Cl)[C@H]1Cl  point of departure (human iPSC-derived cardiomyocytes; mitochondrial membrane potential, refers to: JC-10 granules; 30 min): < 30 µM
CCCCC(CC)COC(=O)c1ccccc1C(=O)OCC(CC)CCCC (stereo not shown)  mitochondrial membrane permeability (TK6; 234 µM, 48 h, with: reduced glutathione 500 µM): decreased
COc1ccc(-c2cc(=O)c3c(O)cc(O[C@@H]4O[C@H](CO[C@@H]5O[C@@H](C)[C@H](O)[C@@H](O)[C@H]5O)[C@@H](O)[C@H](O)[C@H]4O)cc3o2)cc1O  maximum non-toxic concentration (A549; cell viability, MTS; 3 days, 90% cells viable): 1710 ± 2.11 µM
CCC(CC)COC(=O)[C@H](C)N[P@](=O)(OC[C@H]1O[C@@](C#N)(c2ccc3c(N)ncnn23)[C@H](O)[C@@H]1O)Oc1ccccc1  CC50 (Huh-7; 7 days, uninfected, qPCR assay format): 13.4 µM
COc1cc2c(c(OC)c1OC)-c1c(cc3c(c1OC)OCO3)CC(C)C(C)C2 (stereo not shown)  LD50 (HepG2; LDH release; 48 h, with: glutathione 5 mM): 200 µM and > 200 µM
Nc1ncnn2c([C@@H]3O[C@H](CO)[C@@H](O)[C@H]3O)ccc12  cytotoxicity (Vero E6; concentration not given): toxic
Cn1c(C(=O)Nc2ccc3c(c2)OCCO3)cc2c(=O)n3ccccc3nc21  IC50 (Vero E6; MTT): 151 µM
CCOP(=O)([O-])OCC.CCn1cc[n+](C)c1  point of departure (human iPSC-derived cardiomyocytes; mitochondrial membrane potential; 30 min): < 30 µM
CC[C@H](C)[C@H](NC(=O)[C@H](CC(N)=O)NC(=O)[C@H](C)NC(=O)[C@H](CCCNC(=N)N)NC(=O)[C@H](CCCNC(=N)N)NC(=O)[C@H](CC(N)=O)NC(=O)[C@H](CCCNC(=N)N)NC(=O)[C@H](CCCNC(=N)N)NC(=O)[C@H](C)NC(=O)[C@@H](NC(=O)[C@H](CC(C)C)NC(=O)[C@@H](NC(=O)[C@@H](NC(=O)[C@H](CS)NC(=O)[C@H](CCCCN)NC(=O)[C@@H](N)CCCNC(=N)N)C(C)C)[C@@H](C)CC)C(C)C)C(=O)N[C@H](C(=O)N[C@H](C(=O)N[C@@H](CC(C)C)C(=O)N[C@@H](CS)C(=O)N[C@@H](CCCNC(=N)N)C(=O)O)[C@@H](C)CC)C(C)C  hemolysis (human red blood cells; 128 µg/mL, 3 h, 37 °C; relative to: Triton X-100): 4.23%
CC(=O)OC[C@H]1O[C@@H](NC(=O)NC(=O)CCCc2ccc3c(c2)CCCC3)[C@H](OC(C)=O)[C@@H](OC(C)=O)[C@@H]1OC(C)=O  minimal cytotoxic concentration (HEL fibroblasts; cell morphology; 3 days): > 100 µM
NC1=NC2(CCN(C(=O)c3ccc4ccccc4c3)CC2)N(c2cccc(Cl)c2)C(N)=N1  minimum cytotoxic concentration (MDCK; microscopy, altered cell morphology): ≥ 4 µM
C=C(C)[C@]12C[C@@H](COC(=O)c3ccccc3)[C@@]34OC5(CCCCCCC[C@@H](C)[C@H]6[C@H](C)C(=O)[C@@](O)([C@H](O)[C@@]7(CO)O[C@H]7[C@H]3[C@H]1O5)[C@@H]64)O2  IC50 (MT4; cell growth or viability, ATP luminescence): 7.3 µM

Some of these lines once more:
C=C(C[C@H](N)C(=O)O)C(=O)NCc1ccc([N+](=O)[O-])cc1  concentration increasing cytotoxicity (MDA-MB-231; 72 h; relative to: vehicle): 320 µM
Cl.NC1=NC2(CCCN(Cc3ccccc3)C2)N(c2ccccc2)C(N)=N1 (stereo not shown)  minimum cytotoxic concentration (MDCK; microscopy, altered cell morphology): > 100 µM
CC(C)[C@H](N)C(=O)N1CCC[C@H]1C(=O)N[C@@H](Cc1ccccc1)C(=O)N[C@@H](Cc1c[nH]c2ccccc12)C(=O)N[C@@H](C)C(=O)O  viability (Caco-2; MTT; 0.5 and 1 mM, 4 h): > 100%
NC1=NC2(CCN(C(=O)c3ccc4ccccc4c3)CC2)N(c2cccc(Cl)c2)C(N)=N1  minimum cytotoxic concentration (MDCK; microscopy, altered cell morphology): ≥ 4 µM
O=NN1CCN(C2CCCC2)CC1  relative survival (HepaRG, 2D culture; flow cytometry micronucleus; highest tested concentration, 24 h, plus 3 days hEGF; relative to: vehicle): 61.3%
